{"data": "Results gathered from unrelated publications", "note": "± gives the spread as reported."}
{"SMILES": "COC(=O)[C@H]1[C@H]2C[C@H]3O[C@@]4(CCN3C[C@H]2C[C@@H](OC(=O)c2cc(OC)c(OC)c(OC)c2)[C@@H]1OC)C(=O)Nc1cc(OC)c(Br)cc14", "cell line": "RS4-11", "test": "cell growth or viability, trypan blue", "conditions": "72 h", "IC50 [µM]": 10.2}
{"SMILES": "CC1(C)CCC(CN2CCN(c3ccc(C(=O)NS(=O)(=O)c4ccc(NCC5COCCO5)c([N+](=O)[O-])c4)c(N4CCCOc5nc6[nH]ccc6cc54)c3)CC2)=C(c2ccc(Cl)cc2)C1 (stereo not shown)", "cell line": "PF-382", "test": "cell growth or viability, ATP luminescence", "conditions": "24 h", "IC50 [µM]": 0.812}
{"SMILES": "Cc1cc(C#N)cc(C)c1Oc1cc(Nc2ccc(C#N)cc2)nc2ccncc12", "cell line": "HuCC-A1", "conditions": "48 h", "IC50 [µM]": "> 128"}
{"SMILES": "C=C1CC23CC4C5C6(C)CC(O)CC57C(C2C(O)C1C(O)C37)N4C6 (stereo not shown)", "cell line": "HBE", "test": "cell growth or viability, MTT", "IC50 [µM]": 21.8}
{"SMILES": "CCn1cc(/C=C/c2sc3ccccc3[n+]2CC)c2ccccc21", "cell line": "HFF", "test": "cell growth or viability, MTT", "conditions": "24 h", "IC50 [µM]": "> 20"}
{"SMILES": "CCCC(CCC)C(=O)NCCNC(=O)[C@@]1(C)[C@H](O)CC[C@@]2(C)[C@H]1CC[C@]1(C)[C@@H]2C(=O)C=C2[C@@H]3[C@@H](C)[C@H](C)CC[C@]3(C)CC[C@]21C", "cell line": "HBE", "test": "cell growth or viability, MTT", "conditions": "48 h", "IC50 [µM]": 13.8}
{"SMILES": "CC(C)c1cccc(C(C)C)c1N1CCN(c2c(C(C)C)cccc2C(C)C)C1=[Se].[Cl][Au]", "cell line": "human ovarian cancer cells", "test": "cell viability, MTT", "conditions": "72 h", "IC50 [µM]": "4.5 ± 1.2"}
{"SMILES": "N=C(N)NCCC[C@H](N)C(=O)N[C@H](CC(=O)N[C@@H](CC(=O)O)C(=O)O)c1cccc2ccccc12", "cell line": "MCF-7 (no HER2 overexpression)", "IC50 [µM]": "> 50"}
{"SMILES": "CC(C)c1cccc(C(C)C)c1-n1c2c([n+](-c3c(C(C)C)cccc3C(C)C)[c]1[Au-][Cl])-c1cccc3cccc-2c13", "cell line": "2008", "test": "cell growth, MTT", "conditions": "72 h", "IC50 [µM]": "16 ± 1"}
{"SMILES": "CC1=C2[O][Ru-]([Cl])[O+]=C2C=CN1CCCCCCN1C=CC2=[O+][Ru-]([Cl])[O]C2=C1C.Cc1ccc(C(C)C)cc1.Cc1ccc(C(C)C)cc1", "cell line": "LCLC-103H", "test": "cell growth or viability, crystal violet", "conditions": "96 h", "IC50 [µM]": "> 20"}
{"SMILES": "O=[N][Fe]1([N]=O)[S](CCO)[Fe]([N]=O)([N]=O)[S]1CCO", "cell line": "N2a", "test": "cell growth or viability, CCK-8", "conditions": "24 h", "IC50 [µM]": 9.8}
{"SMILES": "CCOP(=O)(OCC)C(Cc1ccc(F)cc1)Nc1ccc(Cl)cc1 (stereo not shown)", "cell line": "U-118-MG", "test": "cell growth or viability, MTT", "conditions": "48 h", "IC50 [µM]": 88.2}
{"SMILES": "CC(=O)O[C@@H]1CC[C@@]2(C)[C@@H](CC[C@]3(C)[C@@H]2C(=O)C=C2[C@@H]4[C@@H](C)[C@H](C)CC[C@]4(C)CC[C@]23C)[C@@]1(C)C(=O)NCCNC(=O)c1ccc(C)cc1", "cell line": "HBE", "test": "cell growth or viability, MTT", "conditions": "48 h", "IC50 [µM]": 5}
{"SMILES": "Cc1cc(N)c2cc(NC(=O)CC(=O)Nc3ccc4nc(C)cc(N)c4c3)ccc2n1", "cell line": "CHO wild type", "test": "FGF2 binding to heparan sulfate, inhibitor, flow cytometry", "conditions": "on ice, together with: biotinylated FGF2 2.5 nM", "IC50 [µM]": "1.2 ± 0.03"}
{"SMILES": "N=C(N/N=C/c1cc2ccccc2[nH]1)N/N=C/c1cc2ccccc2[nH]1", "cell line": "KP-4", "test": "cell growth or viability, crystal violet", "conditions": "72 h", "IC50 [µM]": 4.9}
{"SMILES": "COc1c(O)cc2oc3cc(O)c(CCC(C)C)c(O)c3c(=O)c2c1CCC(C)C", "cell line": "SW480", "test": "cell growth or viability", "conditions": "48 h", "IC50 [µM]": 14.5}
{"SMILES": "COc1ccc2cc3[n+](cc2c1OCc1cn(Cc2cccc(Cl)c2)nn1)CCc1cc2c(cc1-3)OCO2", "cell line": "SW1990", "test": "cell growth or viability, MTT", "IC50 [µM]": 46.8}
{"SMILES": "O=C(Nc1ncnc2c1ncn2[C@@H]1O[C@H](CO)[C@@H](O)[C@H](F)[C@H]1O)c1ccccc1", "cell line": "Molt4/C8", "test": "cell growth or viability", "IC50 [µM]": 81}
{"SMILES": "CCCC(CCC)C(=O)[O][Pt]([NH2])([NH2])([Cl])([Cl])[O]C(=O)c1ccccc1OC(C)=O", "cell line": "LoVo", "test": "cell growth or viability, MTT", "conditions": "72 h", "IC50 [µM]": 0.97}
{"note": "Some of these lines once more:"}
{"SMILES": "COc1ccc2cc3[n+](cc2c1OCc1cn(Cc2cccc(Cl)c2)nn1)CCc1cc2c(cc1-3)OCO2", "cell line": "SW1990", "test": "cell growth or viability, MTT", "IC50 [µM]": 46.8}
{"SMILES": "O=C(Nc1ncnc2c1ncn2[C@@H]1O[C@H](CO)[C@@H](O)[C@H](F)[C@H]1O)c1ccccc1", "cell line": "Molt4/C8", "test": "cell growth or viability", "IC50 [µM]": 81}
{"SMILES": "CCCC(CCC)C(=O)[O][Pt]([NH2])([NH2])([Cl])([Cl])[O]C(=O)c1ccccc1OC(C)=O", "cell line": "LoVo", "test": "cell growth or viability, MTT", "conditions": "72 h", "IC50 [µM]": 0.97}
